Experimental data gathered from unrelated publications.
Lines come from different studies, so protocols differ. ± gives the spread as reported.
Mapk1: Mitogen-activated protein kinase 1 (Mapk1, Rattus norvegicus, UniProt P63086)
Sequence of UniProt P63086 (whole entry, looked up): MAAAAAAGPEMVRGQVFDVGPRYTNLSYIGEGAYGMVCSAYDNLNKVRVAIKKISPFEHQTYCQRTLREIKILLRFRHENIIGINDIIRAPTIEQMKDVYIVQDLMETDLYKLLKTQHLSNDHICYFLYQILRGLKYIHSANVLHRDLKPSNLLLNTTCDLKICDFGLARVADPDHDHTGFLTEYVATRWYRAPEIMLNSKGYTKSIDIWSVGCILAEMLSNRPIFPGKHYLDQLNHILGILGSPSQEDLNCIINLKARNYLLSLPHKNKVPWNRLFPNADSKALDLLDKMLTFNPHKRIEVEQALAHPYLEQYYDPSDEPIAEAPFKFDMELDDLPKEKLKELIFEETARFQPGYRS
Sequence of UniProt P20273 (whole entry, looked up): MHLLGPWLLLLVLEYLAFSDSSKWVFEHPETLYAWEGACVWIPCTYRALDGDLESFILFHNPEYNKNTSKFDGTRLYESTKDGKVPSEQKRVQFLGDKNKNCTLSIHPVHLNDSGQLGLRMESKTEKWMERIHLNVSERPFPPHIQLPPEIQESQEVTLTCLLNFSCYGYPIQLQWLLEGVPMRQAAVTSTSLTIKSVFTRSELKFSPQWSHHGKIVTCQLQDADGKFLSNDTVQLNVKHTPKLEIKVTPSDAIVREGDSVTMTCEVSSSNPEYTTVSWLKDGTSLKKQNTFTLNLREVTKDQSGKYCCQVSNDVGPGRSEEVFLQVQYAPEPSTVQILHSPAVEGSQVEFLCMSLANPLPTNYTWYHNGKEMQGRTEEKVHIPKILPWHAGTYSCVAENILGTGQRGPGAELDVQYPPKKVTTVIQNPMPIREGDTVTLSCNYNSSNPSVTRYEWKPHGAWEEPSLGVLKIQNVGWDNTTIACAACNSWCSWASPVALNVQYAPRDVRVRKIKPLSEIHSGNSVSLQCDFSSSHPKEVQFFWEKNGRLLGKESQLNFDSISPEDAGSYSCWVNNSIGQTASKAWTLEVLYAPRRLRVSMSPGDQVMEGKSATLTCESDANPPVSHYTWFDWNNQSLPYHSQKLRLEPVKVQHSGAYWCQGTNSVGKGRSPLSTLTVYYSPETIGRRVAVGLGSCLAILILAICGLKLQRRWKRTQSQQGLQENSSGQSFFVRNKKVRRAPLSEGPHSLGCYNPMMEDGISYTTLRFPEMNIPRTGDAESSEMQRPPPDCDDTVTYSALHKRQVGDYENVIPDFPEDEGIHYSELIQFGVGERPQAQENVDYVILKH
Sequence of UniProt P22303 (whole entry, looked up): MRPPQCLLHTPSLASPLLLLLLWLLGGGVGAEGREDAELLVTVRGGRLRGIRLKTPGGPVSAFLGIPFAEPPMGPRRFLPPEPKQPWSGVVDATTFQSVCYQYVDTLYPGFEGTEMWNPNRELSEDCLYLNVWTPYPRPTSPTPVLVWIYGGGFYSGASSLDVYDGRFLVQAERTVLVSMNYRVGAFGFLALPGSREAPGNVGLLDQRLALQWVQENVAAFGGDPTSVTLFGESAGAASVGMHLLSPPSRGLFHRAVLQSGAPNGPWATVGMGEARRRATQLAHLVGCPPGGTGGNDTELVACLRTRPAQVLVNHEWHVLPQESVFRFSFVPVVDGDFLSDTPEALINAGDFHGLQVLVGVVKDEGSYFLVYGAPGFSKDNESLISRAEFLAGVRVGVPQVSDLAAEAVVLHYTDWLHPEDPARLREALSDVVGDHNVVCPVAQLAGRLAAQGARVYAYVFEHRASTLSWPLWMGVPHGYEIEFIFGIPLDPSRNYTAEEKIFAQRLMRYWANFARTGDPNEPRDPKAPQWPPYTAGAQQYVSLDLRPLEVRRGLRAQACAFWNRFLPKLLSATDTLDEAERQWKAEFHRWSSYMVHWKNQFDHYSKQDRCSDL
Sequence of UniProt P19490 (whole entry, looked up): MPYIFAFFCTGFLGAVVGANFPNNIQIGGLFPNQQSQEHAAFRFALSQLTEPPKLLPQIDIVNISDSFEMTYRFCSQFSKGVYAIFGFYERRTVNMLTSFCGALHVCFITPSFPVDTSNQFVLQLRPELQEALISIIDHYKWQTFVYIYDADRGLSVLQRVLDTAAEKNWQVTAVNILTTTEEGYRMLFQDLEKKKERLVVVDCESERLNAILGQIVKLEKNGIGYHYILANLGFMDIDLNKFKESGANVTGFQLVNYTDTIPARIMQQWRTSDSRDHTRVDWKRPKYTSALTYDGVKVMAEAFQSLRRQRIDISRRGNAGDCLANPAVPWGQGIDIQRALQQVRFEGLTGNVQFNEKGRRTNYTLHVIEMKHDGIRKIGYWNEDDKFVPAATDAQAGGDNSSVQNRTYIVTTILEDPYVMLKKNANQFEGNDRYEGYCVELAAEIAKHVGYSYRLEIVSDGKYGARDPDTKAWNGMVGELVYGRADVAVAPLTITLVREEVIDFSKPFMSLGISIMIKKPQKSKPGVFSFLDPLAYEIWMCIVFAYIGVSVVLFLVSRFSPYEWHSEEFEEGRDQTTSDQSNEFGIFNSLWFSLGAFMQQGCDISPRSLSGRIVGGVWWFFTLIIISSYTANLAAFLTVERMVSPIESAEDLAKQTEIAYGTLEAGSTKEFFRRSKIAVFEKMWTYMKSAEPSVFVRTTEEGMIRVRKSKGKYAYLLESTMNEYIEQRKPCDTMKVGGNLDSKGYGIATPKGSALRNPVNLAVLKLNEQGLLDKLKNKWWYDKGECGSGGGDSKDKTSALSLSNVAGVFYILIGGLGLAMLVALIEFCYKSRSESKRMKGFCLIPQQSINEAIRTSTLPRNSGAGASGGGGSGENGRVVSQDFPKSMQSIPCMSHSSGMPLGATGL
Sequence of UniProt P19491 (whole entry, looked up): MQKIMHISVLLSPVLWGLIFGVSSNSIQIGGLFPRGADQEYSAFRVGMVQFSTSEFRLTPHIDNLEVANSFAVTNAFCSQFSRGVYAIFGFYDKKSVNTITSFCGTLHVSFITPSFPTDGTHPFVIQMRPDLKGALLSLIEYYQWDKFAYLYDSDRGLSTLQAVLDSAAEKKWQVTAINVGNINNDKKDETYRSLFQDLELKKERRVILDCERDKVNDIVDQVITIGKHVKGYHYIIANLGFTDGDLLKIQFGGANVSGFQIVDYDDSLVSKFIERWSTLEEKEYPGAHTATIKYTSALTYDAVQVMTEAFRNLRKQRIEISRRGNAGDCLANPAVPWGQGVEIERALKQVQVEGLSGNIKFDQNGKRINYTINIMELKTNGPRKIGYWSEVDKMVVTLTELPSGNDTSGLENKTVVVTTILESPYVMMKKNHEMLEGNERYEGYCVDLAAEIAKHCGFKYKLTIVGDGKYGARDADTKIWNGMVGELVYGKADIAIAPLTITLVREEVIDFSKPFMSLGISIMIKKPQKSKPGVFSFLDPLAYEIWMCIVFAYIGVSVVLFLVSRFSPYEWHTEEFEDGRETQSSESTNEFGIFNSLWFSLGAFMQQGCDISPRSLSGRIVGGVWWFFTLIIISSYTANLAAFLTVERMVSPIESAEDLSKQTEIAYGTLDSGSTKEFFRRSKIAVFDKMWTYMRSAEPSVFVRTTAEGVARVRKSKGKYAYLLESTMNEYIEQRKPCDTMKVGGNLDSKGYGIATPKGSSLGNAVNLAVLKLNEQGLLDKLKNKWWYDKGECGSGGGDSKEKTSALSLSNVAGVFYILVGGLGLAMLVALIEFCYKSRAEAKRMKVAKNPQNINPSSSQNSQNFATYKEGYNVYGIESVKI
Sequence of UniProt P07237 (whole entry, looked up): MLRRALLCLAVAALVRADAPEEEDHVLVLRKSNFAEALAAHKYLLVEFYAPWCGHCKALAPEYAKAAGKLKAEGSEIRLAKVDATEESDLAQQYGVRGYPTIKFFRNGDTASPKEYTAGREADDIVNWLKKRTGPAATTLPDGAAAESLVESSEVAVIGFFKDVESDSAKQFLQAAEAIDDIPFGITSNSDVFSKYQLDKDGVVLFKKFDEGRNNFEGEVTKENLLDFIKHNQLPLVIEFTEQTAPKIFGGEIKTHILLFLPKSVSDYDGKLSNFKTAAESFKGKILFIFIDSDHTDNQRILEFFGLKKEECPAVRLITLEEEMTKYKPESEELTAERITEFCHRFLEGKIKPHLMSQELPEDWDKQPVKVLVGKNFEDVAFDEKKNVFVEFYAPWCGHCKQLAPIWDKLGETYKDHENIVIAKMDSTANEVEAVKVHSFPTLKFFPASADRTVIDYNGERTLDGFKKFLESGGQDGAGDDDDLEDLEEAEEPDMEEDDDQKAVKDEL
Sequence of UniProt P08908 (whole entry, looked up): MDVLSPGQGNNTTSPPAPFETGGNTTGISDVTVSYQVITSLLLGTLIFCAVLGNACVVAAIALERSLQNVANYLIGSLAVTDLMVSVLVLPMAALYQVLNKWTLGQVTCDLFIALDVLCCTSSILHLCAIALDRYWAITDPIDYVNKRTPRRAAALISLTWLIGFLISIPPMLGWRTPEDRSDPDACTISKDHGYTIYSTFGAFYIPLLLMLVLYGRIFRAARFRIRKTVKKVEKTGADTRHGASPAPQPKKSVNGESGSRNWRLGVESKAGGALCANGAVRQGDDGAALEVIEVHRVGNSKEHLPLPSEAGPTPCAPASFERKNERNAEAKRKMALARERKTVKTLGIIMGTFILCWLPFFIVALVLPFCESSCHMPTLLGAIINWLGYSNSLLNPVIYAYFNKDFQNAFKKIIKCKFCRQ
Sequence of UniProt P35462 (whole entry, looked up): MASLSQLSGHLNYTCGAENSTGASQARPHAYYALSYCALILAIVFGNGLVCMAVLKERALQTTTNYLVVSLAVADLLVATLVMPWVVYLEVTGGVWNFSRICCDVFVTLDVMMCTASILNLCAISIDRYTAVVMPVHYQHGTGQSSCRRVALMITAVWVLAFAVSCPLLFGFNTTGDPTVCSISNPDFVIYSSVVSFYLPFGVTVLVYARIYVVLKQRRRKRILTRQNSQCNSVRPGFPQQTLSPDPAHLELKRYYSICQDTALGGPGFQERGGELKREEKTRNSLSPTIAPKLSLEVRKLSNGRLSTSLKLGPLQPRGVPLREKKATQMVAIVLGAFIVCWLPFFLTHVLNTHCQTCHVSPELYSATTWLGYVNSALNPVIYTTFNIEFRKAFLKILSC

| Compound | target | test | test system | conditions | IC50 |
| --- | --- | --- | --- | --- | --- |
| O=C(CF)N[C@H]1[C@H]([C@H](O)[C@H](O)CNC(=O)c2ccc(Oc3ccccc3)cc2)O[C@@](OCc2cccc(Cl)c2Cl)(C(=O)O)C[C@@H]1O | CD22 (Homo sapiens, UniProt P20273) | ligand binding, inhibitor, competitive bead binding flow cytometry |  | with: 6'SLN(Gc)-PAA-biotin beads | 1.01 ± 0.02 µM |
| CC[C@H](C)[C@H](NC(=O)[C@H](CCCCN)NC(=O)[C@H](CC(C)C)NC(=O)[C@H](C)NC(=O)[C@H](C)NC(=O)[C@H](C)NC(=O)[C@H](CCCCN)NC(=O)[C@@H](NC(=O)[C@H](CCCCN)NC(=O)[C@H](CC(N)=O)NC(=O)[C@H](CCCCN)NC(=O)[C@@H](NC(=O)[C@H](C)NC(=O)[C@@H](N)Cc1ccc(O)cc1)[C@@H](C)O)C(C)C)C(=O)N[C@H](C(=O)N[C@@H](CCCNC(=N)N)C(=O)O)[C@@H](C)CC | Mapk1 | enzyme activity, inhibitor, fluorescence |  | pH 7.4 | > 200 µM |
| CCN(C)C(=O)Oc1ccccc1/C=C1\Cc2cc(OC)c(OC)cc2C1=O | ACHE (Homo sapiens, UniProt P22303) | enzyme activity, inhibitor |  |  | > 10 µM |
| Cc1ccc(NS(=O)(=O)c2c(C)[nH]c(C)c2C(=O)N2CCCC2)cc1 | DRD3 (Homo sapiens, UniProt P35462) | β-arrestin recruitment, antagonist |  |  | 38 µM |
| O=C(/C=C/c1ccccc1)c1ccc(S(=O)(=O)F)cc1 | P4HB (Homo sapiens, UniProt P07237) | enzyme activity, inhibitor |  |  | 66 µM |
| COc1ccccc1-n1ccnc1SCC(=O)Nc1cc(C(F)(F)F)ccc1Cl | PFF0160c (Plasmodium falciparum, UniProt Q08210, E182D) | enzyme activity, inhibitor, absorbance |  |  | 0.0921 µM |
| CC(C)C[C@H](NC(=O)[C@@H](NC(=O)[C@H](CC(C)C)NC(=O)[C@H](CO)NC(=O)[C@@H](NC(=O)[C@H](CC(N)=O)NC(=O)[C@H](CO)NC(=O)CNC(=O)[C@H](CCCNC(=N)N)NC(=O)[C@H](CCCNC(=N)N)NC(=O)[C@H](CCC(=O)O)NC(=O)[C@H](CCC(N)=O)NC(=O)[C@H](CC(C)C)NC(=O)CNC(=O)[C@H](C)NC(=O)[C@@H](N)Cc1ccc(O)cc1)C(C)C)[C@@H](C)O)C(=O)O | Mapk1 | enzyme activity, inhibitor, fluorescence |  | pH 7.4 | 35.1 µM |
| COC(=O)Cc1cc2c(cc1C(=O)c1cccc(Br)c1)OCO2 | Glutamate receptor AMPA 1/2 (Gria1/Gria2, Rattus norvegicus, UniProt P19490+P19491) | ion current, patch clamp |  |  | 5.41 µM |
| O=C(CCc1ccc(Br)cc1)N[C@H]1CCOC1=O | lasR (Pseudomonas aeruginosa, UniProt P25084) | reporter gene, antagonist | Escherichia coli, JLD271 with LasR plasmid | with: OdDHL 10 nM | 0.74 µM |
| CC[C@H](C)[C@H](NC(=O)[C@H](CCCCN)NC(=O)[C@H](CC(C)C)NC(=O)[C@H](CCCCN)NC(=O)[C@H](CCCNC(=N)N)NC(=O)[C@H](CCCCN)NC(=O)[C@H](CCCCN)NC(=O)[C@@H](NC(=O)[C@H](CCCCN)NC(=O)[C@H](CC(N)=O)NC(=O)[C@H](CCCCN)NC(=O)[C@@H](NC(=O)[C@H](C)NC(=O)[C@@H](N)Cc1ccc(O)cc1)[C@@H](C)O)C(C)C)C(=O)N[C@H](C(=O)N[C@@H](CCCNC(=N)N)C(=O)O)[C@@H](C)CC | Mapk1 | enzyme activity, inhibitor, fluorescence |  | pH 7.4 | 15.7 µM |
| O=c1c(O)c(-c2ccc(O)c(O)c2)oc2cc(O)c(O)c(O)c12 | Fructose-bisphosphate aldolase (Candida albicans, UniProt Q9URB4) | enzyme activity, inhibitor, absorbance |  |  | 1.14 µM |
| CC12CCC3C(CCC4CC(O)CCC43C)C1CCC2C#N (stereo not drawn) | HTR1A (Homo sapiens, UniProt P08908) | cAMP, antagonist |  |  | 5.14 µM |

For quick reference, copied from above:
| Compound | target | test | test system | conditions | IC50 |
| --- | --- | --- | --- | --- | --- |
| O=c1c(O)c(-c2ccc(O)c(O)c2)oc2cc(O)c(O)c(O)c12 | Fructose-bisphosphate aldolase (Candida albicans, UniProt Q9URB4) | enzyme activity, inhibitor, absorbance |  |  | 1.14 µM |
